Measured values pooled from the literature.
A part holds a random share of what one study measured.

Set 1
Target: Histone acetyltransferase KAT6A, winged helix 2, GST fusion (KAT6A, Homo sapiens, UniProt Q92794, residues 85-181)
Method: protein binding microarray
Molecule type: double-stranded DNA, one strand shown
Matrix: in vitro
Tested at: not given
Notes: 8-mer, flanks averaged, mean of 2 arrays, mostly near background
Baseline: not given
Direction: higher = stronger binding
Measurement: E-score
Residues (chain): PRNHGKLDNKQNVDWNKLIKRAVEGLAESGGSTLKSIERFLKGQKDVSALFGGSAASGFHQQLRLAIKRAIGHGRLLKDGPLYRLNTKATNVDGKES
CCTCATCC: -0.029
AGGGCGGA: 0.196
AGTGTCCA: 0.099
GACTATAC: 0.0328
CACTCCGC: 0.014
GGCCGACA: -0.0356
GTTACAAC: 0.05
CCTAGGTA: -0.338
AATAAAGT: 0.0181
ACGGTCCG: 0.0671
ACTATGTC: -0.196
GACGATAC: 0.115
GGCCTGAC: 0.0195
CCGCCGCC: 0.0863
TACGGCGA: 0.136
CGTTTGAA: -0.0442
CAGCGGAA: 0.0222
CGGTGCAC: -0.0875
AGACGCTA: 0.00279
ATATTACC: 0.0536
CCCCCCGA: -0.0273
AATCACTA: -0.135
ATCTAAGA: -0.0655
AATTACGG: -0.0511
CGTATAAG: -0.151

Set 2
Target: PABPC1L2, full length, GST fusion (mouse, UniProt A0ABA7IW68)
Method: RNAcompete
Molecule type: RNA
Matrix: in vitro
Tested at: 20 nM
Notes: 7-mer, probes averaged, single round
Baseline: mean of 7-mers
Direction: higher = stronger binding
Measurement: 7-mer Z-score
Construct (chain): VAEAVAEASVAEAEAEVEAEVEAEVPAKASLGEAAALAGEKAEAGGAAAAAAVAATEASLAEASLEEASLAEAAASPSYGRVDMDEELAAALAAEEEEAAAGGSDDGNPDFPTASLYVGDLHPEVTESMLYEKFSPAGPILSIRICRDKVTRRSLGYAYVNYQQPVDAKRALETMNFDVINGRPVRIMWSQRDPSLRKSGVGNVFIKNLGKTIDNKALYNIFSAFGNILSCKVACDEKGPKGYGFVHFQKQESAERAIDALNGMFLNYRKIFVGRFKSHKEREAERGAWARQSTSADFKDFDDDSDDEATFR
CCUUUGA: -0.0808
AUCUUUA: 0.129
CGAUCUA: -0.0718
CGCUCAA: -0.157
CGCACCC: -0.46
UGCUUUC: -0.393
CACGCGC: -0.353
AUUAUAA: 0.323
ACCGAUG: -0.0718
CCGCUUC: -0.353
GAAGAGU: -0.15
ACAUUGU: -0.0699
ACAGUGU: -0.0482
CGAGGCG: -0.0156
CAUGCGG: -0.0591
CUACAUU: -0.195
UCUUCAA: -0.269

Set 3
Target: RNA binding protein fox-1 homolog 2, RRM domain, GST-SBP tag (RBFOX2, Homo sapiens, UniProt O43251-10, residues 100-194)
Method: RNA Bind-n-Seq
Molecule type: RNA
Matrix: in vitro
Tested at: 365 nM
Notes: natural RNA segment, single round, ends assumed
Baseline: no-protein control
Direction: higher = stronger binding
Measurement: RBNS enrichment (R)
Residues (chain): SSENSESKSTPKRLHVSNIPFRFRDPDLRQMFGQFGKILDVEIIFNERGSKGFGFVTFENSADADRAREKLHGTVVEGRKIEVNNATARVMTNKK
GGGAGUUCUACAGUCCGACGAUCGCUGCCAGUCACUGGUCUGGGGGGUGGAGGCCUGAGCUGAGGGCAGGGUGCCUGACCUGUGUGCCGGCUGCUCACUGCUGUGACCAGCAGCCGAGCCCUUGGCCCUAGCCUGGAAUUCUCGGGUGCCAA: 0.449
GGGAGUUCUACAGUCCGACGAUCGGUGUUCUGGGUCCCAGCCUUGUCUUAUCGCCUGUCCUGUCAGUGUCCAACCACACGGUGGCUUGGUGGGGUCACUCAGCUGCUAUGGGACAGCACAUGUGGGAAGUCAAUGGAAUUCUCGGGUGCCAA: 0.353
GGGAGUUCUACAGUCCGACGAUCCCCCCUUCACUCUGCCUUCCUGAGUUGGCCCCACUCUGCACGGGAGGGAGGGCCCACCUUAGACUGCUGGGGAGAGGCCACAGGGCUGGGGGCCAGGUCCGGCCAGCUGUUGGAAUUCUCGGGUGCCAA: 1.24
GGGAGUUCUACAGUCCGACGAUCUUUUAUAUAAAUUUCCCACGUUACGGGGCCUUGUUUUGCAUGCUGAUGAAGAACUACUUAAAACUAACAGUUAAAAUCAGCUUGCCUCCCCUAGUAGAAGCAGGUUCUUGUGGAAUUCUCGGGUGCCAA: 0.935
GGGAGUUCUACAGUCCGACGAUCAUAUUCCAUCGUUACAGGAUAGCGUUCGGUACACAGUGGCGGGUUUCUUUAGCUGCUGUGUUUAUUCUCAUUCCUCACACAUGCCUUUAAGUGCAUUGGACUCCAGGAGAUGGAAUUCUCGGGUGCCAA: 0.287
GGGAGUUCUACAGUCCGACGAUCUCCGUAUUGGAGCCCUCCCUGCUUCCCCUUCUUUCUUUCCUCUUUCCCCAGGCCGCCACUGCCCUUGCCCCUUUCAUCUCCCAGCAGCCCUCAGGAGCGUCAGGAUCAUUUGGAAUUCUCGGGUGCCAA: 1.49
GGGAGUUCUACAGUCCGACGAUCGAGCAGCACAAAUAACCUGGAGUUGUUUGGCCUUGGUUCCUUAAGUCCUGUGUUCAAGACACUGAAGCUAUCUCCCAUGUUCUGUGUGAGAUUUCUGAGUAAGAUCUGGCUGGAAUUCUCGGGUGCCAA: 0.333
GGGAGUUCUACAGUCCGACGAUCCUGGGAAUUUUCUUUUUCCUGAAACUUUGAAUCACCCUAGUAAGUCAAAGUACUAAAAAAUGUACUAGAUCAUUAAGACUUAUGUGCUCUUACUGAUUGAAAGAUUUUUUUGGAAUUCUCGGGUGCCAA: 0.399

Set 4
Target: Sal-like protein 4, full length isoform B (SALL4, Homo sapiens, UniProt Q9UJQ4-2, residues 1-616)
Method: universal PBM
Molecule type: double-stranded DNA, one strand shown
Matrix: in vitro
Tested at: not given
Notes: 8-mer, flanks averaged, mean of replicates
Direction: higher = stronger binding
Measurement: E-score
Construct (chain): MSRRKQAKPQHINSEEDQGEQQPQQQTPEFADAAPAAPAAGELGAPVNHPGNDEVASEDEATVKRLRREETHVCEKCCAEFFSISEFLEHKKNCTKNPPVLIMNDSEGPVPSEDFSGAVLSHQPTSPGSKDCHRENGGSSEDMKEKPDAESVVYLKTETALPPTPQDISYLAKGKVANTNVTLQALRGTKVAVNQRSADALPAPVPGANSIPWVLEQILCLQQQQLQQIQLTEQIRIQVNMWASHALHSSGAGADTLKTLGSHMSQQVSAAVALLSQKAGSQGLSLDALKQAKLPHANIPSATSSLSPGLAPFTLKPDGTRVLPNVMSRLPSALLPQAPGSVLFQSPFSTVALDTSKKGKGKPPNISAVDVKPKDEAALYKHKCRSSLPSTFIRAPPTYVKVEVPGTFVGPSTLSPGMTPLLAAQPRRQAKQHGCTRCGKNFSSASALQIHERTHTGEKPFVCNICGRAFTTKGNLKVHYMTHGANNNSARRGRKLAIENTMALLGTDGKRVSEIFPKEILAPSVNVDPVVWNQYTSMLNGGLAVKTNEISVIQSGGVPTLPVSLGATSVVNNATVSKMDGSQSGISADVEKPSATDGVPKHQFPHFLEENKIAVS
GTACACGA: 0.0728
AATGACTA: 0.158
AAGAGGAA: -0.0259
GAGCTGCA: -0.195
GTATCTTA: 0.278
TGTCACAA: 0.102
GGTAAACC: -0.126
ACTATACC: 0.149
CACTTGAC: -0.0377
CGAAAGAG: -0.0185
GTCAGCCA: -0.104
AATATAAA: 0.431
GTGCAGGA: -0.0878
CCAGGGAG: -0.317
AGTTTCAC: 0.113
GACGCTCC: -0.234
CGACGAAC: -0.123
GCAAGCCC: -0.303
CTGATCGC: -0.137
AGCCGCAG: -0.318
ATTTATGA: 0.445
CCTTTACA: 0.109
AAACCGAA: 0.0999
